Experimental data collected from several papers.
Each line is one published result; not all experiments were run side by side. ± marks the error that the study gave.
MAL12: Alpha-glucosidase MAL12 (MAL12, Saccharomyces cerevisiae S288c, UniProt P53341)
PLG: Plasminogen (PLG, Homo sapiens, UniProt P00747)
USP51: Ubiquitin carboxyl-terminal hydrolase 51 (USP51, Homo sapiens, UniProt Q70EK9)
Adhesin FmlH lectin domain: Adhesin FmlH, lectin domain (Escherichia coli, UniProt Q1RBS0)
PTGS1: Prostaglandin G/H synthase 1 (PTGS1, Ovis aries, UniProt P05979)
CAPN1: Calpain-1 catalytic subunit (CAPN1, Homo sapiens, UniProt P07384)

C/C1=C\CC/C(C)=C/CC(C)(C)/C=C/C1
inhibition (Transient receptor potential cation channel subfamily V member 1 (Trpv1, Rattus norvegicus, UniProt O35433, S512A/T550A/Y511A); ion current, inhibitor, outside-out patch clamp; 100 µM, triple vanilloid-site mutant, with: pH 5.5 activation): 93 ± 2%

CCOCc1ccc(O[C@@H]2O[C@@H](C)[C@H](O)[C@@H](O)[C@H]2O)cc1
inhibition (MAL12; inhibitor; 100 µg/mL, 0.4167 h, with: p-nitrophenyl glucoside substrate): 39.8 ± 4.61%

Cc1ccc(CNC(=O)C(CCc2ccccc2)NC(=O)C(NC(=O)Cc2cccc(Oc3ccccc3)c2)C(C)O)cc1 (centres unmarked)
inhibition (PLG; enzyme activity, inhibitor; 100 µM): -9%

COC1CN([C@H]2CC[C@H]([C@@]3(C)Oc4c(Cl)cc(C(=O)NCc5c(SC)cc(C)[nH]c5=O)c(C)c4O3)CC2)C1
log2 fold change (RNA-seq, refers to: ZNRF3 mouse homolog; mouse, HT-1376 xenograft, whole blood; dose not given; relative to: vehicle): 0.262

CC(=O)C12NC(C)(C)CC1(C)C(=O)C1=C2c2c(c3c4n2C(C)(C)CC2=C4C4(CC(C)(C)NC(C)(C4)C2=O)CC3(C)C)C(=O)C(C)(C)N1 (single isomer, unassigned; (-))
inhibition (Voltage-dependent T-type calcium channel subunit alpha-1H (CACNA1H, Homo sapiens, UniProt O95180); ion current, antagonist, whole-cell patch clamp; HEK293T; 10 µM): 2.77 ± 0.05%

CCc1cc(-c2csc(S(=O)(=O)Nc3cc(OC)c(OC)c(OC)c3)c2)on1
inhibition (USP51; enzyme activity, inhibitor; 1 µM): 8.3 ± 2.2%

CC(C)=CCc1cc(C(=O)/C=C/c2ccc(O)cc2)c(O)cc1O
Km (phase I metabolism, substrate; rat liver microsomes): 17.2 ± 2.92 µM

C=CC(=O)N1Cc2nc(-c3cc(-c4cc(Cl)cnc4Cl)c(F)cc3F)n(-c3ccncn3)c2C1
inhibition (Inactive tyrosine-protein kinase PEAK1 (PEAK1, Homo sapiens, UniProt Q9H792); cell-free assay, inhibitor; 1 µM): 7%

COc1cc(-c2noc(CSc3nc(C)cc(O)n3)n2)cc(OC)c1OC
inhibition (USP51; enzyme activity, inhibitor; 1 µM): 4.8 ± 1%

NC(=O)[C@@H](O)C[C@H]1CCc2sc3ncnc(O[C@H]4CC[C@H](N5CCOCC5)CC4)c3c21
inhibition (Serine/threonine-protein kinase VRK1 (VRK1, Homo sapiens, UniProt Q99986); enzyme activity, inhibitor; 10 µM): 19%

OC[C@H]1O[C@H](Oc2ccc(-c3ccccc3)cc2)[C@H](O)[C@@H](O)[C@H]1O
inhibition (Adhesin FmlH lectin domain; binding to desialylated mucin, ELISA competition; UPEC UTI89; 100 µM): 86.5 ± 1.7%

CS(=O)(=O)c1ccc(-n2cc(C=NN=c3[nH]c(-c4ccc([N+](=O)[O-])cc4)cs3)c(-c3ccc(Br)cc3)n2)cc1
inhibition (PTGS1; enzyme activity; 0.1 µM): 17.6%

Cc1ccc(CNC(=O)[C@H](CCc2ccccc2)NC(=O)[C@H](CC(=O)NCC(C)(C)C)NC(=O)c2ccc(OCc3ccccc3)cc2)cc1
inhibition (CAPN1; enzyme activity, inhibitor; 100 µM): 25%

C=CC(=O)Nc1cccc(Cn2ncc3cnc(Nc4cnn(CCOC)c4)nc32)c1
percent of control (GRK2 human; binding, KINOMEscan; 100 nM; lower = stronger binding): 100%

CCOC(=O)c1sc2nc(-c3ccc(O)c(OC)c3)c(NCc3ccc(F)cc3)n2c1C
inhibition (USP51; enzyme activity, inhibitor; 1 µM): 41.6 ± 12.4%

COc1ccc(C(=O)Nc2c(-c3cccs3)nc3ccccn23)cc1
inhibition (Alpha-2B adrenergic receptor (ADRA2B, Homo sapiens, UniProt P18089); ligand displacement, radioligand; 10 µM): < 50%

Oc1ccc(C2NCCc3cc(O)c(O)cc32)cc1 (centres unmarked)
inhibition (MAL12; enzyme activity, inhibitor; 100 µM, DMSO solvent, with: pNPG substrate): 103.55 ± 0.09%

CC(C)(C)CNC(=O)C[C@H](NC(=O)CCc1ccccc1)C(=O)N[C@@H](Cc1cccnc1)C(=O)NCc1ccccc1Cl
inhibition (CAPN1; enzyme activity, inhibitor; 100 µM): 50%

COc1cc(-c2nc3ncccn3c2Nc2ccc(C)c(Cl)c2)ccc1O
inhibition (USP51; enzyme activity, inhibitor; 1 µM): 19.3 ± 4.1%

Cc1ncsc1-c1ccc(C(C)NC(=O)C2CC(O)CN2C(=O)C(NC(=O)CCCCCCCCCCN2CCCC(Nc3ncc(Cl)c(Nc4ccccc4S(=O)(=O)C(C)C)n3)C2)C(C)(C)C)cc1 (centres unmarked)
log2 fold change (22Rv1; RNA-seq, refers to: USP37 mRNA; concentration not given; relative to: DMSO): -1.1

CC(C)Cc1ccc(-c2nn(-c3ccc(S(C)(=O)=O)cc3)cc2C=NN=c2[nH]c(-c3ccc(Br)cc3)cs2)cc1
inhibition (PTGS1; enzyme activity; 1 µM): 25.9%

C[Si](C)(C)C[C@H](CN)CC(=O)O
inhibition (glycine receptor, rat; binding, radioligand binding; 250 µM): -14%

CS(=O)(=O)c1ccc(-n2cc(C=NN=c3[nH]c(-c4ccc([N+](=O)[O-])cc4)cs3)c(-c3ccc([N+](=O)[O-])cc3)n2)cc1
inhibition (PTGS1; enzyme activity; 0.1 µM): 8.62%

CN(C)C/C=C/C(=O)Nc1ccc2nc(NCCCCCN(C)C)nc(NCCCCCCN(C)C)c2c1
inhibition (Histone-lysine N-methyltransferase SETD2 (SETD2, Homo sapiens, UniProt Q9BYW2); enzyme activity, inhibitor, radiometric; 10 µM): 89%

CCn1cc(-c2cccc(C(F)(F)F)c2)c2sc(C(=N)NC3CCS(=O)(=O)CC3)cc2c1=O
inhibition (Bromodomain-containing protein 3, BD1 (BRD3, Homo sapiens, UniProt Q15059); 1 µM): 2.84%

CN(Cc1ccc(/C=C/C(=O)NO)cc1)CC12CC3CC(CC(C3)C1)C2
inhibition (human Y1 receptor; agonist radioligand binding; 0.05 µM): -13%

C[Si]1(C[C@H](CN)CC(=O)O)CCCC1
inhibition (Histamine H3 receptor (HRH3, Homo sapiens, UniProt Q9Y5N1); ligand displacement, radioligand; 70 µM): 0%

Cc1[nH]nc2c1N=C(c1ccccc1Cl)c1cnc(N3CCOCC3)cc1N2
inhibition (Prostaglandin E2 receptor EP4 subtype (PTGER4, Homo sapiens, UniProt P35408); cell-free assay; 10 µM): 10%

c1ccc(OC[C@H]2CN(CCN3CCc4ccccc43)CCO2)nc1
inhibition (5-hydroxytryptamine receptor 5A (HTR5A, Homo sapiens, UniProt P47898); radioligand binding; concentration not given, with: [3H]LSD): 24.4%

CN1CC[C@@H](COc2cnc(C#N)cc2-c2ccn3nc(NC(=O)C4CC4)cc3c2)C1
inhibition ([Pyruvate dehydrogenase (acetyl-transferring)] kinase isozyme 4, mitochondrial (PDK4, Homo sapiens, UniProt Q16654); enzyme activity, inhibitor; 1 µM): 8%

COc1cc(-c2nc3c4ccccc4ncn3n2)cc(OC)c1OC
inhibition (USP51; enzyme activity, inhibitor; 1 µM): 10.5 ± 2.8%

CC(C)Cn1c(SCC(=O)N2CCc3ccccc3C2)nc2cc(Cl)ccc2c1=O
inhibition (5-hydroxytryptamine receptor 1A (HTR1A, Homo sapiens, UniProt P08908); ligand displacement, radioligand; 10 µM): -9%

CC(=O)O[C@@]1(C)CN(Cc2ccccc2)[C@H]2C[C@@H]1CC(=O)[C@@H]2C
inhibition (Mu-type opioid receptor (Cavia porcellus, UniProt A0ACM8Q262); binding, radioligand binding; guinea pig brain membranes; 1 µM, with: [3H]DAMGO): 16%

Cn1c(=O)c(SCC(=O)NCCN2CCC(Cc3ccccc3)CC2)nc2ccccc21
inhibition (D(2) dopamine receptor (DRD2, Homo sapiens, UniProt P14416); enzyme activity, inhibitor; 10 µM): 52.2%

Cc1ccc(-c2nn(-c3ccc(S(C)(=O)=O)cc3)cc2C=NN=c2[nH]c(-c3ccc([N+](=O)[O-])cc3)cs2)cc1
inhibition (PTGS1; enzyme activity; 0.01 µM): 3.73%

CC(=O)N[C@H]1[C@H](Oc2ccccc2-c2cccc(C(=O)O)c2)O[C@H](CO)[C@H](O)[C@@H]1O
inhibition (Adhesin FmlH lectin domain; binding to desialylated bovine submaxillary mucin, inhibitor, ELISA competition; UPEC UTI89; 1 µM): 54.7 ± 2.8%

Cc1ccc(-c2nn(-c3ccc(S(C)(=O)=O)cc3)cc2C=NN=c2[nH]c(-c3ccc(Br)cc3)cs2)cc1 (mixture of isomers)
inhibition (PTGS1; enzyme activity; 0.01 µM): 6.49%

COc1cc(C(=O)Nc2ccccc2SCc2nnc(-c3ccccc3)o2)cc(OC)c1OC
inhibition (USP51; enzyme activity, inhibitor; 1 µM): 25.4 ± 5.6%

O=C1c2sc(-c3ccc(N4CCC(F)C4)nc3F)nc2CCN1c1cccnc1 (centres unmarked)
inhibition (sigma receptor, non-selective (human); radioligand binding, BioPrint binding panel; 1 µM, with: agonist radioligand): 3%

Brc1ccccc1-c1nnc(CSc2nnnn2-c2ccccc2)o1
inhibition (Alpha-2C adrenergic receptor (ADRA2C, Homo sapiens, UniProt P18825); ligand displacement, radioligand; 10 µM): 8%

COc1ccc(C[C@H](NC(=O)Cc2cccc(Oc3ccccc3)c2)C(=O)N[C@@H](Cc2c[nH]c3ccccc23)C(=O)NCc2ccc(C)cc2)cc1OC
inhibition (PLG; enzyme activity, inhibitor; 100 µM): -15%

O=C(O)c1cccc(-c2ccccc2O[C@H]2O[C@H](CO)[C@H](O)[C@H](O)[C@H]2O)c1
inhibition (Adhesin FmlH lectin domain; binding to desialylated mucin, ELISA competition; UPEC UTI89; 100 µM): 26.2 ± 5.9%

Cc1nc2c(F)cc(-c3nc(Nc4ccc(CNC(=O)CCCCCCC(=O)NO)cc4)ncc3F)cc2n1C(C)C
inhibition (Phosphatidylinositol 4,5-bisphosphate 3-kinase catalytic subunit delta isoform, with p85 alpha (Pik3cd, Mus musculus, UniProt O35904); enzyme activity; 1 µM, p110δ/p85α)(m mouse): 45%

Cc1c(C)c2ccc(O[C@@H]3O[C@H](CO)[C@H](O)[C@H](O)[C@H]3O)cc2oc1=O
inhibition (Adhesin FmlH lectin domain; binding to desialylated bovine submaxillary mucin, inhibitor, ELISA competition; UPEC UTI89; 1 µM): 10.2 ± 4.3%

CCCc1noc(-c2ccc(-n3cnc(C(=O)NC4CC4)c3)nc2)n1
inhibition (USP51; enzyme activity, inhibitor; 1 µM): 20.2 ± 4.1%

Cc1ccccc1O[C@@H]1O[C@H](CO)[C@H](O)[C@H](O)[C@H]1O
inhibition (Adhesin FmlH lectin domain; binding to desialylated mucin, ELISA competition; UPEC UTI89; 10 µM, with: desialylated bovine submaxillary mucin): 28.2 ± 1.8%

Cc1nn(-c2cccc(N)c2)c(=O)c2cnc(Nc3ccc(N4CCNCC4)cc3)nc12
IC50 (Dual specificity protein kinase CLK1 (CLK1, Homo sapiens, UniProt P49759); kinase activity, inhibitor, SelectScreen kinase profiling): > 10 µM

COc1ccccc1O[C@@H]1O[C@H](CO)[C@H](O)[C@H](O)[C@H]1O
inhibition (Adhesin FmlH lectin domain; binding to desialylated mucin, ELISA competition; UPEC UTI89; 100 µM): 97.2 ± 0.4%

Nc1ncc(-c2cc(-c3cnn(CC(F)(F)F)c3)ncc2F)nc1C(=O)NC1CNCC(F)C1 (centres unmarked)
remaining binding (DCAMKL2; KINOMEscan; 1 µM; relative to: DMSO control): 100%

N#Cc1ccc(O[C@@H]2O[C@H](CO)[C@H](O)[C@H](O)[C@H]2O)cc1
inhibition (Adhesin FmlH lectin domain; binding to desialylated mucin, ELISA competition; UPEC UTI89; 100 µM): 85.7 ± 1.6%

C/C=C/C(=O)Nc1ccc2nc(NCCCCCN(C)C)nc(NCCCCCCN(C)C)c2c1
inhibition (Histone-lysine N-methyltransferase 2C (KMT2C, Homo sapiens, UniProt Q8NEZ4); enzyme activity, inhibitor, radiometric; 10 µM): 12%

OC[C@H]1O[C@@H](Oc2cccc3cccnc23)[C@H](O)[C@@H](O)[C@H]1O
inhibition (Adhesin FmlH lectin domain; binding to desialylated bovine submaxillary mucin, inhibitor, ELISA competition; UPEC UTI89; 1 µM): 19.2 ± 2.8%

O=C1c2sc(-c3ccc(N4CCC(CO)CC4)nc3F)nc2CCN1c1cccnc1
inhibition (SKCa channel; radioligand binding; 1 µM, with: antagonist radioligand): -9%

Repeated from above:
C[Si]1(C[C@H](CN)CC(=O)O)CCCC1
inhibition (Histamine H3 receptor (HRH3, Homo sapiens, UniProt Q9Y5N1); ligand displacement, radioligand; 70 µM): 0%

Cc1[nH]nc2c1N=C(c1ccccc1Cl)c1cnc(N3CCOCC3)cc1N2
inhibition (Prostaglandin E2 receptor EP4 subtype (PTGER4, Homo sapiens, UniProt P35408); cell-free assay; 10 µM): 10%

c1ccc(OC[C@H]2CN(CCN3CCc4ccccc43)CCO2)nc1
inhibition (5-hydroxytryptamine receptor 5A (HTR5A, Homo sapiens, UniProt P47898); radioligand binding; concentration not given, with: [3H]LSD): 24.4%

CN1CC[C@@H](COc2cnc(C#N)cc2-c2ccn3nc(NC(=O)C4CC4)cc3c2)C1
inhibition ([Pyruvate dehydrogenase (acetyl-transferring)] kinase isozyme 4, mitochondrial (PDK4, Homo sapiens, UniProt Q16654); enzyme activity, inhibitor; 1 µM): 8%

COc1cc(-c2nc3c4ccccc4ncn3n2)cc(OC)c1OC
inhibition (USP51; enzyme activity, inhibitor; 1 µM): 10.5 ± 2.8%
